# Assay results from different studies.
# Each line is one published result; not all experiments were run side by side. ± marks the error that the study gave.
Compound,test,test system,setting,Tmax [min]
CCN1CCN(Cc2ccc(NC(=O)c3ccc(C)c(NC(=O)c4cncc(-c5cccs5)c4)c3)cc2C(F)(F)F)CC1,,"C57BL/6 mice, epithelial lining fluid","intraperitoneal, 10 mg/kg",30
O=[N+]([O-])c1ccc(-c2ccc(O)cc2)c2cccnc12,,"ICR mice male, plasma","oral, 5 mg/kg",15
Cc1ncsc1-c1ccc(CNC(=O)[C@@H]2C[C@@H](O)CN2C(=O)[C@@H](NC(=O)CCCCCCCCCC(=O)N2CCN(CC[C@H](NC(=O)C3(N)CCN(c4ncnc5[nH]ccc45)CC3)c3ccc(Cl)cc3)CC2)C(C)(C)C)cc1,,"male Swiss albino mice, plasma","intraperitoneal, 75 mg/kg, single dose",60
Nc1ncn([C@H]2C[C@H](O)[C@@H](CO)O2)c(=O)n1,UHPLC-MS/MS,"C57BL/6 mice, female, plasma","oral, 0.4 mg/kg",15
CNC(=O)c1cc(Oc2ccc(NC(=O)Nc3ccc(Cl)c(C(F)(F)F)c3)c(F)c2)ccn1,,"male DBA/1lacJ Oatp1b2 knockout mice, plasma","oral, 10 mg/kg single dose",90
CC(C)(C)c1ccc(O)c(CN(Cc2cc(C(C)(C)C)ccc2O)C2CCC(NC(N)=O)CC2)c1 (stereo not shown),,"C57BL/6 mice, male, brain","intraperitoneal, 10 mg/kg",30
Cc1c(C(=O)O)ccc2c3n(nc12)[C@@H]1[C@H](C3)N(CC2CC2)[C@@]2(C(=O)Nc3cc(Cl)ccc32)[C@H]1c1cccc(Cl)c1F,,"female BALB/c nude mice, SJSA-1 xenograft, plasma","oral, 2 mg/kg once daily, mean",144
CN[C@@H](C)C(=O)N[C@H]1CN(C(=O)CC(C)C)CC[C@H]2CC[C@@H](C(=O)NC(c3ccccc3)c3ccccc3)N2C1=O,,"SCID mice, MDA-MB-231 xenograft, tissues","oral, 100 mg/kg",≤ 60
COc1cc([C@@H]2Oc3ccc([C@H]4Oc5cc(O)cc(O)c5C(=O)[C@@H]4O)cc3O[C@H]2CO)ccc1O,,"FVB wild-type mice, plasma","oral gavage, 500 mg/kg silymarin, median",15
CCc1nc(C(N)=O)c(Nc2ccc(N3CCC(N4CCN(C)CC4)CC3)c(OC)c2)nc1NC1CCOCC1,,"female FVB mice, OCT1/2 knockout, plasma","oral, 10 mg/kg, single dose",360
CC(C)(C)c1sc2ncnc(Oc3c(F)cccc3OC(F)(F)F)c2c1-c1ccc(Cl)cc1,,"wild-type mice, plasma","intravenous, 1 mg/kg",15
COCc1cc(C(=O)Nc2cc([C@H]3CC[C@@H](OC(=O)NC(C)C)C3)[nH]n2)n(C)n1,,"OVCAR-3 xenograft, NOD/SCID gamma mice, plasma","oral, 50 twice daily, PK/PD study",450
C=C1C(=O)O[C@H]2[C@H]1CC/C(CO)=C\CC[C@@]1(C)O[C@@H]21,,"BALB/c male mice, plasma","oral, 757.0 µmol/kg",120 ± 20
CCN(c1cc(-c2ccc(CN3CCOCC3)cc2)cc(C(=O)NCc2c(C)cc(C)[nH]c2=O)c1C)C1CCOCC1,,"female CB17 SCID mice, HT-1376 xenograft, plasma","75 mg/kg, day 1",30
COc1cc([C@H]2Oc3cc([C@H]4Oc5cc(O)cc(O)c5C(=O)[C@@H]4O)ccc3O[C@@H]2CO)ccc1O,,"FVB wild-type mice, plasma","oral gavage, 500 mg/kg silymarin, median",15
CNC(=O)c1cc(Oc2ccc(NC(=O)Nc3ccc(Cl)c(C(F)(F)F)c3)c(F)c2)cc[n+]1[O-],,"Oatp1b2 knockout mice, plasma","oral, 10 mg/kg regorafenib",348 ± 112

# A few entries again:
Compound,test,test system,setting,Tmax [min]
CCN1CCN(Cc2ccc(NC(=O)c3ccc(C)c(NC(=O)c4cncc(-c5cccs5)c4)c3)cc2C(F)(F)F)CC1,,"C57BL/6 mice, epithelial lining fluid","intraperitoneal, 10 mg/kg",30
O=[N+]([O-])c1ccc(-c2ccc(O)cc2)c2cccnc12,,"ICR mice male, plasma","oral, 5 mg/kg",15
Cc1ncsc1-c1ccc(CNC(=O)[C@@H]2C[C@@H](O)CN2C(=O)[C@@H](NC(=O)CCCCCCCCCC(=O)N2CCN(CC[C@H](NC(=O)C3(N)CCN(c4ncnc5[nH]ccc45)CC3)c3ccc(Cl)cc3)CC2)C(C)(C)C)cc1,,"male Swiss albino mice, plasma","intraperitoneal, 75 mg/kg, single dose",60
